{"data": "Measurements pooled from the literature", "note": "Every numbered part comes from another study and shows a few of its results, in no order.", "sequence of UniProt P00519 (whole entry, unmodified, looked up)": "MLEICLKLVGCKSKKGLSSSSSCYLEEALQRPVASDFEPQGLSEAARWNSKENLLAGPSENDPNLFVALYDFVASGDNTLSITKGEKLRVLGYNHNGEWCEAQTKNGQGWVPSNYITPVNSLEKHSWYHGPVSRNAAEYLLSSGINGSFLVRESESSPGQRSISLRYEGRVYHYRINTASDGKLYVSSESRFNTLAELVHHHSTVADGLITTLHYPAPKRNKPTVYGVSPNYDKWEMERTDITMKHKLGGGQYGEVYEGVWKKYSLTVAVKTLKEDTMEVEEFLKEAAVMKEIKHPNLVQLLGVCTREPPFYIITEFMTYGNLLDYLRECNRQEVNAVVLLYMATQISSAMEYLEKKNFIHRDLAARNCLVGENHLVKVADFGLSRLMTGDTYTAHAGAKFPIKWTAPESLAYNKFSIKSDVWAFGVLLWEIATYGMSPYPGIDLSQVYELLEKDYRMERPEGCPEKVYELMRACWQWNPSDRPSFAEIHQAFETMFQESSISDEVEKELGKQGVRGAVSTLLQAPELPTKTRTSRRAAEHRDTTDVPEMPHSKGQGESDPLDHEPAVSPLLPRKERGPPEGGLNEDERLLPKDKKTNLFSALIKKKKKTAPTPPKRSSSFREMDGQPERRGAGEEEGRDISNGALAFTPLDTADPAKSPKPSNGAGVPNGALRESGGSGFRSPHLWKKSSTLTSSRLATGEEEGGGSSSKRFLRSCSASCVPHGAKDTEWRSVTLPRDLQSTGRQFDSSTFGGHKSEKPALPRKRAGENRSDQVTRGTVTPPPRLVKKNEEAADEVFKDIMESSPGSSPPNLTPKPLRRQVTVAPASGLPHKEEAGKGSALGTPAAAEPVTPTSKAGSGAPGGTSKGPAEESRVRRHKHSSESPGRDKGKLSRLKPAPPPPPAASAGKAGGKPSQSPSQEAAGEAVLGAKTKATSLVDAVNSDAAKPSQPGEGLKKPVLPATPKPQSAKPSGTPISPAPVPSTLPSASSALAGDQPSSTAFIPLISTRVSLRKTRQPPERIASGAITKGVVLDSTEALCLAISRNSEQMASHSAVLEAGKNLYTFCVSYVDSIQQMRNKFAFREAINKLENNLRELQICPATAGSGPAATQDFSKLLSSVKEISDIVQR", "sequence of UniProt P54646 (whole entry, looked up)": "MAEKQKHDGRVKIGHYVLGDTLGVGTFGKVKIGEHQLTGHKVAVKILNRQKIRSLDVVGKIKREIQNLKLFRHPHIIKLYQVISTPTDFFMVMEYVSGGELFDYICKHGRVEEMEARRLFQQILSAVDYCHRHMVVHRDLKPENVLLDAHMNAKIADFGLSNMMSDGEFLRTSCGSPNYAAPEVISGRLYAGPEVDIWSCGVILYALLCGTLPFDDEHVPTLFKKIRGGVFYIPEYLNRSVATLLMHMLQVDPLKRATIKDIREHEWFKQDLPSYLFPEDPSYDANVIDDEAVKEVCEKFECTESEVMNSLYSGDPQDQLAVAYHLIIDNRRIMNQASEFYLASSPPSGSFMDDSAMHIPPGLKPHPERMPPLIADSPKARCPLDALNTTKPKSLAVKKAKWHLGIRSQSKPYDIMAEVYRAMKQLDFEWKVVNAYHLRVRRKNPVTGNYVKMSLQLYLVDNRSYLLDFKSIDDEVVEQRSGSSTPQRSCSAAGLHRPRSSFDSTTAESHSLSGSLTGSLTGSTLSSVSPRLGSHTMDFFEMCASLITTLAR", "sequence of UniProt P46734 (whole entry, looked up)": "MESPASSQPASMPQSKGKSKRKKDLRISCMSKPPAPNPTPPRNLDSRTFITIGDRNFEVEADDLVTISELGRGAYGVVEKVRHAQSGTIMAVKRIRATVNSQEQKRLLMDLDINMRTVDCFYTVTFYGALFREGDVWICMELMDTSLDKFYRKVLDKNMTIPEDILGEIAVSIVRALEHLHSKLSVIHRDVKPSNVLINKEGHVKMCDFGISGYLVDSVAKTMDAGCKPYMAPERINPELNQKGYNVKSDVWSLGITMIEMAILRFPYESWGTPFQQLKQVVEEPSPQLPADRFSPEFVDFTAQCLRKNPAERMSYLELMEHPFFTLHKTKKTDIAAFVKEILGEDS"}
{"data": "Series 1", "target": "Calcium/calmodulin-dependent protein kinase type II subunit alpha (CAMK2A, Homo sapiens, UniProt Q9UQM7)", "observed": "enzyme activity", "mode": "inhibitor", "tested at": "10 µM", "sequence of UniProt Q9UQM7 (whole entry, looked up)": "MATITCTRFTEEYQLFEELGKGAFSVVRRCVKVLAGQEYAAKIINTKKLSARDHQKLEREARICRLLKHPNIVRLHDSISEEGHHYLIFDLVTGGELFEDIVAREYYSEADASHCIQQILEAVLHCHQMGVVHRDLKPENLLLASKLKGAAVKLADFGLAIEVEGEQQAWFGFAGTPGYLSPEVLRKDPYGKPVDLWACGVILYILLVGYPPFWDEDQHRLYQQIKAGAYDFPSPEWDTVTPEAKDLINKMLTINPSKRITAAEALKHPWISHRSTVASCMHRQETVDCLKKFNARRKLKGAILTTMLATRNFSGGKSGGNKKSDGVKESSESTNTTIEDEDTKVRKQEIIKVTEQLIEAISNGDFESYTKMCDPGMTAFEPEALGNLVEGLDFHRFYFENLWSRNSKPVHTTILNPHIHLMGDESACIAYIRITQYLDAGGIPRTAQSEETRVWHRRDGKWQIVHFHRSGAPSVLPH"}
{"SMILES": "CC1=C2[C@@H](OC1=O)[C@H](O)[C@]13[C@H]4C[C@@H](C(C)(C)C)[C@]15[C@@H](OC(=O)[C@@H]5O)O[C@@]23C(=O)O4", "inhibition": "-5%"}
{"SMILES": "CC(=O)Oc1ccc(C2(c3ccc(OC(C)=O)cc3)C(=O)Nc3ccccc32)cc1", "inhibition": "2%"}
{"SMILES": "Cc1nccn1CCC(C(N)=O)(c1ccccc1)c1ccccc1", "inhibition": "-2%"}
{"SMILES": "O=S(=O)(O)Oc1ccc(C(c2ccc(OS(=O)(=O)O)cc2)c2ccccn2)cc1", "inhibition": "-2%"}
{"SMILES": "O=c1c(O)c(-c2cc(O)c(O)c(O)c2)oc2cc(O)cc(O)c12", "inhibition": "-69%"}
{"SMILES": "Cc1cccc(Nc2ccccc2C(=O)O)c1C", "inhibition": "6%"}
{"SMILES": "O=C1C[C@@H](c2ccc(O[C@@H]3O[C@H](CO)[C@@H](O)[C@H](O)[C@H]3O[C@@H]3OC[C@](O)(CO)[C@H]3O)cc2)Oc2cc(O)ccc21", "inhibition": "-20%"}
{"SMILES": "Cc1ccc(-c2ccc(C)cn2)nc1", "inhibition": "-1%"}
{"data": "Series 2", "target": "Testis-specific serine/threonine-protein kinase 1 (TSSK1B, Homo sapiens, UniProt Q9BXA7)", "observed": "enzyme activity", "mode": "inhibitor", "tested at": "0.5 µM", "reference": "control", "Residues (Q9BXA7 1-367)": "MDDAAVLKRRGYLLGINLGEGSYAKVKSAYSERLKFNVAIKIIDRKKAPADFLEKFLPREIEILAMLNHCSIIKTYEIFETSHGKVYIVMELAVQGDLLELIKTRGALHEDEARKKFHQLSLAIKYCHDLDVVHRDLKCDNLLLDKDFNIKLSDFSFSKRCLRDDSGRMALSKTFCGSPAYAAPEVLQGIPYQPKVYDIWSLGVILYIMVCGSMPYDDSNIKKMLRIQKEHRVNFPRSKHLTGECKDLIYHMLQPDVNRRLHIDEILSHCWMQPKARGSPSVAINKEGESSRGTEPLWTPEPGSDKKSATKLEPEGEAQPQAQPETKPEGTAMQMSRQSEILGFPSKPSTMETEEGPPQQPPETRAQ"}
{"Compound": "NC(=O)c1cccc(-c2cc(Nc3ccc(OC(F)(F)F)cc3)ncn2)c1", "remaining activity [%]": 95.4}
{"Compound": "O=C(c1ccccc1)c1ccc(N2CCOCC2)cc1O", "remaining activity [%]": 107}
{"Compound": "COc1cc2c(Nc3ccc(Br)cc3F)ncnc2cc1OCC1CCN(C)CC1", "remaining activity [%]": 96.6}
{"Compound": "CC(C)(C)c1nc2c3cc[nH]c(=O)c3c3cc(F)ccc3c2[nH]1", "remaining activity [%]": 37.3}
{"Compound": "NC(=O)c1ccc(-c2nc(-c3ccc4c(c3)OCCO4)c(-c3ccccn3)[nH]2)cc1", "remaining activity [%]": 100}
{"Compound": "CCCCc1c(-c2ccc(O)cc2)[nH]c2nccnc12", "remaining activity [%]": 62}
{"Compound": "FC(F)(F)c1ccc(/C=C/c2nc(COc3ccc(CCCCn4ccnn4)cc3)co2)cc1", "remaining activity [%]": 93.4}
{"Compound": "CCN(CC)CCCCN1c2ccccc2Oc2ccc(Cl)cc21", "remaining activity [%]": 96.7}
{"Compound": "Clc1ccc(Nc2nnc(Cc3ccncc3)c3ccccc23)cc1", "remaining activity [%]": 94.8}
{"data": "Series 3", "Structure (SMILES)": "CS(=O)(=O)N1CCCC(NC(=O)[C@H](CCC2CCCCC2)NC(=O)c2ccc(CNC(=O)c3cnc4ccccn34)cc2)C1 (stereo partly drawn)", "tested at": "0.1 µM"}
{"target": "Tyrosine-protein kinase ABL1, phosphorylated (ABL1, Homo sapiens, UniProt P00519, E255K)", "observed": "binding", "method": "competition with immobilised ligand", "remaining binding": "74%"}
{"target": "MAP2K3 (Homo sapiens, UniProt P46734)", "observed": "cell-free assay", "method": "competition with immobilised ligand", "remaining binding": "100%"}
{"target": "CAMK1G (Homo sapiens, UniProt Q96NX5)", "observed": "cell-free assay", "method": "competition with immobilised ligand", "remaining binding": "84%"}
{"target": "STK24 (Homo sapiens, UniProt Q9Y6E0)", "observed": "cell-free assay", "method": "competition with immobilised ligand", "remaining binding": "95%"}
{"target": "SRMS (Homo sapiens, UniProt Q9H3Y6)", "observed": "cell-free assay", "method": "competition with immobilised ligand", "remaining binding": "71%"}
{"target": "ULK2 (Homo sapiens, UniProt Q8IYT8)", "observed": "cell-free assay", "method": "competition with immobilised ligand", "remaining binding": "100%"}
{"target": "FLT3 (Homo sapiens, UniProt P36888, D835V)", "observed": "cell-free assay", "method": "competition with immobilised ligand", "remaining binding": "61%"}
{"target": "PIK3CD (Homo sapiens, UniProt O00329)", "observed": "cell-free assay", "method": "competition with immobilised ligand", "remaining binding": "67%"}
{"target": "WEE1 (Homo sapiens, UniProt P30291)", "observed": "cell-free assay", "method": "competition with immobilised ligand", "remaining binding": "100%"}
{"target": "PRKCD (Homo sapiens, UniProt Q05655)", "observed": "cell-free assay", "method": "competition with immobilised ligand", "remaining binding": "100%"}
{"target": "PRKAA2 (Homo sapiens, UniProt P54646)", "observed": "cell-free assay", "method": "competition with immobilised ligand", "remaining binding": "79%"}
{"target": "Tyrosine-protein kinase ABL1, phosphorylated (ABL1, Homo sapiens, UniProt P00519, F317I)", "observed": "binding", "remaining binding": "85%"}
{"target": "EPHA8 (Homo sapiens, UniProt P29322)", "observed": "cell-free assay", "method": "competition with immobilised ligand", "remaining binding": "89%"}
{"target": "PNCK (Homo sapiens, UniProt Q6P2M8)", "observed": "cell-free assay", "method": "competition with immobilised ligand", "remaining binding": "77%"}
{"target": "GRK1 (Homo sapiens, UniProt Q15835)", "observed": "cell-free assay", "method": "competition with immobilised ligand", "remaining binding": "100%"}
{"target": "ROCK2 (Homo sapiens, UniProt O75116)", "observed": "cell-free assay", "method": "competition with immobilised ligand", "remaining binding": "100%"}
{"target": "MAP2K7 (Homo sapiens, UniProt O14733)", "observed": "cell-free assay", "method": "competition with immobilised ligand", "remaining binding": "95%"}
{"target": "CAMKK1 (Homo sapiens, UniProt Q8N5S9)", "observed": "cell-free assay", "method": "competition with immobilised ligand", "remaining binding": "84%"}
{"target": "HIPK3 (Homo sapiens, UniProt Q9H422)", "observed": "cell-free assay", "method": "competition with immobilised ligand", "remaining binding": "100%"}
{"target": "IRAK3 (Homo sapiens, UniProt Q9Y616)", "observed": "cell-free assay", "method": "competition with immobilised ligand", "remaining binding": "65%"}
{"target": "GAK (Homo sapiens, UniProt O14976)", "observed": "cell-free assay", "method": "competition with immobilised ligand", "remaining binding": "96%"}
{"target": "STK32A (Homo sapiens, UniProt Q8WU08)", "observed": "cell-free assay", "method": "competition with immobilised ligand", "remaining binding": "81%"}
{"data": "Series 4", "target": "DNA polymerase theta, ATPase domain (POLQ, Homo sapiens, UniProt O75417)", "observed": "enzyme activity", "mode": "inhibitor", "tested at": "77 µM", "reference": "untreated", "sequence of UniProt O75417 (whole entry, unmodified, looked up)": "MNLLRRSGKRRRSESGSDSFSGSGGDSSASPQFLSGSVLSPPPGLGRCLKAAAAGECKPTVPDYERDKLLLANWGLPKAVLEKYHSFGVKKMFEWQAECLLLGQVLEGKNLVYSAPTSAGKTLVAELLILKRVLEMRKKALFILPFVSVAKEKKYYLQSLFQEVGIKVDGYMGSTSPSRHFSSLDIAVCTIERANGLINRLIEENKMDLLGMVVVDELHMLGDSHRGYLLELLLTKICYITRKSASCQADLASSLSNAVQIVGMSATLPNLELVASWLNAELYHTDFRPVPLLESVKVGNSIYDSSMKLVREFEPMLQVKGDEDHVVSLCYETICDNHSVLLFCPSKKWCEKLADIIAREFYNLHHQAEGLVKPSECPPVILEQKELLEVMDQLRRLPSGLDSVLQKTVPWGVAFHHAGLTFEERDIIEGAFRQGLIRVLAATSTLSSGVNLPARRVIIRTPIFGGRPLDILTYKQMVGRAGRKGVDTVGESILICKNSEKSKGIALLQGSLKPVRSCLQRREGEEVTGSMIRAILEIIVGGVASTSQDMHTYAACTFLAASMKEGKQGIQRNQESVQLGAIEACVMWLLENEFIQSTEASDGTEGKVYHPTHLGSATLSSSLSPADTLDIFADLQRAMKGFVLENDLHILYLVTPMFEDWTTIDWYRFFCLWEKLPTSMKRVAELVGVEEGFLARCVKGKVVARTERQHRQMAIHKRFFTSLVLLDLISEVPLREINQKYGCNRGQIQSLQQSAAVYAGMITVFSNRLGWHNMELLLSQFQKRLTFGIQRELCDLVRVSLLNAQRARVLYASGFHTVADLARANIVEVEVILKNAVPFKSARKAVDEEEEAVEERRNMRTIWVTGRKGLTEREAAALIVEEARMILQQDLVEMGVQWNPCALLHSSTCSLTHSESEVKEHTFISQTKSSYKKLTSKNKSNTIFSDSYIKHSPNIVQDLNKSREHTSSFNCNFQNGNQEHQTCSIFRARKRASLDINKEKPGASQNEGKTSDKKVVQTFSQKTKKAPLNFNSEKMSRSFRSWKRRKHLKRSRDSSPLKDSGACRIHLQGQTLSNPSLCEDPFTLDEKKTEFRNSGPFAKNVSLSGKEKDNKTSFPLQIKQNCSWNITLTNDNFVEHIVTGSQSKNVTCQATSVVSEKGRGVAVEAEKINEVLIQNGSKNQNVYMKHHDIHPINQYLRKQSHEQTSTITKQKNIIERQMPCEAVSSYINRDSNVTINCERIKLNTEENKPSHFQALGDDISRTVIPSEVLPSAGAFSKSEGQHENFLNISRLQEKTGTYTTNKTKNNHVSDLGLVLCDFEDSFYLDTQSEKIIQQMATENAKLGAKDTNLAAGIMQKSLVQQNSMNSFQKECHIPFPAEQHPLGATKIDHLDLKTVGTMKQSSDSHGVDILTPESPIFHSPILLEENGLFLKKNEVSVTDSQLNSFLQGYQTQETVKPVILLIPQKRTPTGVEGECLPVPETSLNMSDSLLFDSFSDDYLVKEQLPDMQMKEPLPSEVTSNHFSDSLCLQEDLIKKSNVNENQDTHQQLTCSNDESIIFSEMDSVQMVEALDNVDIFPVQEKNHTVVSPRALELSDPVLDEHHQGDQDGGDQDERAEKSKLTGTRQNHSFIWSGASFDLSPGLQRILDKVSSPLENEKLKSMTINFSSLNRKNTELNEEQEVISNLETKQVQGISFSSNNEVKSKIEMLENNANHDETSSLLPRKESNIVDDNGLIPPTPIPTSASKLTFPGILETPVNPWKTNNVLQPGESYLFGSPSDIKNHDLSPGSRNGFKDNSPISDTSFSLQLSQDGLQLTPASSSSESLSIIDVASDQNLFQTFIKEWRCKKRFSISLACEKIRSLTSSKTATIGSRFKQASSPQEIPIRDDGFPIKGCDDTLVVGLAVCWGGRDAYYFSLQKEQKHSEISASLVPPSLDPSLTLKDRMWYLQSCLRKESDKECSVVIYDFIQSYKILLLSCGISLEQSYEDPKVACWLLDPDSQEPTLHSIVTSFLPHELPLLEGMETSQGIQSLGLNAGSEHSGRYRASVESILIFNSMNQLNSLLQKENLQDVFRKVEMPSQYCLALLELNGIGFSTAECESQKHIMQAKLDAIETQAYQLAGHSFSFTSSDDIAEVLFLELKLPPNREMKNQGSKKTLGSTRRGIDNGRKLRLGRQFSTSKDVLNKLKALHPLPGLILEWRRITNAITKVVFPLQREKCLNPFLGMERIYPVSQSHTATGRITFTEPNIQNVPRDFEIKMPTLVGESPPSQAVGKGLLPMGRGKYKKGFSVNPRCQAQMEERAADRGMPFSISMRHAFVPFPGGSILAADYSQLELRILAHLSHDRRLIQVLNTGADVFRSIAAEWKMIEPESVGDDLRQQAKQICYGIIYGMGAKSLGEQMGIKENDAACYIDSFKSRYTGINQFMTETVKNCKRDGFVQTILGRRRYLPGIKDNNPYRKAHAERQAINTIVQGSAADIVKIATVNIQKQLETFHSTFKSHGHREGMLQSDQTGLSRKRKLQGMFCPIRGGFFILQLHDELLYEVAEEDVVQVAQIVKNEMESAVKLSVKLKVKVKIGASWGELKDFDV"}
{"SMILES": "COc1cc(N)c(Cl)cc1C(=O)N[C@@H]1CCN(CCCOc2ccc(F)cc2)C[C@@H]1OC", "remaining activity [%]": 101}
{"SMILES": "c1cc(-c2cnn3cc(-c4ccc(OCCN5CCCCC5)cc4)cnc23)ccn1", "remaining activity [%]": 85.4}
{"SMILES": "CCCN(CC1CC1)c1nc(C)nc(Nc2c(Cl)cc(Cl)cc2Cl)c1Cl", "remaining activity [%]": 110}
{"SMILES": "CN1CCN(c2nc3cc(C(F)(F)F)ccc3n3cccc23)CC1", "remaining activity [%]": 109}
{"SMILES": "CCCCCCCN(CC)CCCC(O)c1ccc(NS(C)(=O)=O)cc1 (stereo not drawn)", "remaining activity [%]": 95.4}
{"SMILES": "COC(=O)C1=C(C)NC(C)=C(C(=O)OC(C)(C)CN(C)CCC(c2ccccc2)c2ccccc2)C1c1cccc([N+](=O)[O-])c1 (stereo not drawn)", "remaining activity [%]": 90.4}
{"note": "Repeated from above (series 3):"}
{"target": "CAMKK1 (Homo sapiens, UniProt Q8N5S9)", "observed": "cell-free assay", "method": "competition with immobilised ligand", "remaining binding": "84%"}
{"target": "HIPK3 (Homo sapiens, UniProt Q9H422)", "observed": "cell-free assay", "method": "competition with immobilised ligand", "remaining binding": "100%"}
{"target": "IRAK3 (Homo sapiens, UniProt Q9Y616)", "observed": "cell-free assay", "method": "competition with immobilised ligand", "remaining binding": "65%"}
